Measured values from different studies.
Compare with care: the assays were run in different laboratories. Several values in a cell are separate wells, animals, samples, runs or records. ± marks the error that the study gave.
Chain of UniProt P45985 (whole entry, looked up): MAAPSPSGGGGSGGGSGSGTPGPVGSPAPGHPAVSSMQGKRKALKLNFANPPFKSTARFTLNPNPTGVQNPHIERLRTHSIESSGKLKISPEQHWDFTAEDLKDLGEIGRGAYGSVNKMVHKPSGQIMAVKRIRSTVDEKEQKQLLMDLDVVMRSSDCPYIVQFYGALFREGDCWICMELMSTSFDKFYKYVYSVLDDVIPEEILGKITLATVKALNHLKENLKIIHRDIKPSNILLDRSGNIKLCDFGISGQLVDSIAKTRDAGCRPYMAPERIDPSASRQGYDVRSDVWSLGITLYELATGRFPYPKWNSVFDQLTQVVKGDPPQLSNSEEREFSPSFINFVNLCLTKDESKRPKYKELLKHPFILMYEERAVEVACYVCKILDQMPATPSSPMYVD
Chain of UniProt P28565 (whole entry, looked up): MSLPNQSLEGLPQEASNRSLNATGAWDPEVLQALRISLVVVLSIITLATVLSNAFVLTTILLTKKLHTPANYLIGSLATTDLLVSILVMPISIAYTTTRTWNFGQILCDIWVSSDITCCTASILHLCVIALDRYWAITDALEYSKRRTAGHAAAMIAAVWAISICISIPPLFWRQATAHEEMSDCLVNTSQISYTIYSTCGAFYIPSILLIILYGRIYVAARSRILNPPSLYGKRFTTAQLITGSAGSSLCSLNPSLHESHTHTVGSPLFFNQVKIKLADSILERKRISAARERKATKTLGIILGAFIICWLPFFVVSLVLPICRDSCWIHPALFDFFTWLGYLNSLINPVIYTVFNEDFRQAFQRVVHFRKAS
Chain of UniProt Q61205 (whole entry, looked up): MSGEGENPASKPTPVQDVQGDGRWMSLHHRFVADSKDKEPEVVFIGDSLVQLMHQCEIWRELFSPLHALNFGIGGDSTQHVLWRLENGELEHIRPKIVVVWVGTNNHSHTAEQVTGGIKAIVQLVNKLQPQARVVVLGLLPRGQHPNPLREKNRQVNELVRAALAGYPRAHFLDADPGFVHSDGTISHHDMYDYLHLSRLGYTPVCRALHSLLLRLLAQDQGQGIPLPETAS

`COC(=O)c1cc(O)c(=O)c(O)cc1C` has an EC50 of 1100 nM (Hepatitis B virus; viral replication, inhibitor, qPCR; HepDES19).
For `O=C(c1cccc(-c2ccc3ncnc(Nc4ccc(OCc5cccc(F)c5)c(Cl)c4)c3c2)c1)N1CCCCC1`, the EC50 was over 50000 nM (Trypanosoma cruzi; intracellular amastigote growth, β-galactosidase CPRG; 3T3, Tulahuen, β-galactosidase-expressing; 96 h).
`CC(C)(C)C(=O)OCOP(=O)(OCOC(=O)C(C)(C)C)C1CCCN(O)C1=O` (stereo not drawn) gave a CC50 of over 100 µM (SNB-19).
With `O=c1c(O)ccc(-c2ccc(-c3ccccc3)cc2)cc1O` the EC50 was 2800 nM (Hepatitis B virus; viral replication, inhibitor, qPCR; HepDES19).
`O=C1NC2(CC2)COc2ncc(F)cc2[C@H]2COCCN2c2ccn3ncc1c3n2` — result for “pancreatic amylase activity”: 1960 ± 146 U/L (Sprague-Dawley rat, male, serum; oral, 10 mg/kg/day, 4 weeks daily, end of recovery period).
For `CC(C)[C@H]1NC(=O)C[C@H]2/C=C/CCSSC[C@@H](NC1=O)C(=O)N[C@H](Cc1cccc3ccccc13)C(=O)NCC(=O)O2`, the inhibition was -2.2% (Hepatocyte growth factor receptor (MET, Homo sapiens, UniProt P08581, Y1235D); enzyme activity, inhibitor; 10 µM).
Under “maximum pancreas uptake”, `CC[C@H](C)[C@H](NC(=O)[C@H](CO)NC(=O)[C@H](Cc1ccc(O)cc1)NC(=O)[C@H](Cc1ccc(O)cc1)NC(=O)[C@H](CC(N)=O)NC(=O)CNC(=O)[C@H](CO)NC(=O)[C@H](Cc1ccc(O)cc1)NC(=O)[C@H](CO)NC(=O)[C@H](CO)NC(=O)[C@H](CC(N)=O)NC(=O)COCCOCCNC(=O)CN1CCN(CC(=O)O)CCN(CC(=O)O)CCN(CC(=O)O)CC1)C(=O)N[C@@H](CC(C)C)C(N)=O` [copper-64 labelled] is recorded as 18.3 %IA/cc (dynamic PET; tamoxifen-induced PDAC mouse model, pancreas; 9.5 min, CLDN4-expressing tumours).
For `Cc1cc(Oc2nc(N3CC[C@@H](c4ccncc4)C3)ncc2F)[nH]n1`, the IC50 was 36.3 µM (A204; cell proliferation; muscle cancer).
`COC(=O)c1c2c(cc(O)c(=O)c1O)COC2=O` has an EC50 of 500 nM (Hepatitis B virus; viral replication, inhibitor, qPCR; HepDES19).
`COc1cc(N[C@H](C(=O)c2c[nH]c3ccc(OC(F)(F)F)cc23)c2ccc(Cl)cc2OC)cc(S(C)(=O)=O)c1` has an EC50 of 6880 nM (Zika virus; viral replication; Huh-7.5.1, nanoluciferase reporter; 48 h).
With `O=c1c(O)ccc(-c2cccc(-c3ccccc3)c2)cc1O` the EC50 was 2400 nM (Hepatitis B virus; viral replication, inhibitor, qPCR; HepDES19).
With `O=S(=O)(c1cccc(-c2ccc3ncnc(Nc4ccc(OCc5cccc(F)c5)c(Cl)c4)c3c2)c1)N1CCCCC1` the EC50 was over 50000 nM (Trypanosoma cruzi; intracellular amastigote growth, β-galactosidase CPRG; 3T3, Tulahuen, β-galactosidase-expressing; 96 h).
The EC50 of `C[C@@]1(O)[C@H](O)[C@@H](CO)O[C@H]1n1ccc2c(N)ncnc21` is reported as 7760 nM (Zika virus; viral replication; Huh-7.5.1, nanoluciferase reporter; 48 h).
For `Clc1cc(Nc2ncnc3ccc(-c4cccc(N5CCOCC5)c4)cc23)ccc1OCc1ccccc1`, the EC50 was 1300 nM (Trypanosoma cruzi; intracellular amastigote growth, β-galactosidase CPRG; 3T3, Tulahuen, β-galactosidase-expressing; 96 h).
Under “EC50 fold shift”, `Cc1cc(C(=O)Nc2nc3cccc(C)c3n2[C@H]2CCCCN(C(=O)/C=C/CN(C)C)C2)ccn1` is recorded as 0.65 fold and 0.97 fold (Trypanosoma brucei; cell growth, Alamar Blue; 2T1 overexpressing Tb927.9.14430; reference: parental 2T1).
With `CN1CCN(S(=O)(=O)c2ccc(-c3ccc4ncnc(Nc5ccc(OCc6ccccc6)c(Cl)c5)c4c3)cc2)CC1` the EC50 was 3900 nM (Trypanosoma cruzi; intracellular amastigote growth, β-galactosidase CPRG; 3T3, Tulahuen, β-galactosidase-expressing; 96 h).
`CCC1(CC)CC(=O)N(C2c3cc(C(=O)NC4c5ccccc5CC4O)ccc3OC2(C)COC)C(=N)N1` (stereo not drawn) has an EC50 of 0.4 ± 0.2 nM (Plasmodium falciparum; parasite growth; K1).
For `CC1(F)CN(C(=O)Cn2c(=O)c(C(=O)NCc3ccc(Cl)cc3)cc3nc(N4CCN(CCN)C4=O)cnc32)C1`, the EC50 was 211 nM (human cytomegalovirus; viral replication, plaque reduction; HFF-1, AD169 US3-6-EGFP; 240 h).
The activity ratio-of-ratios of `CC(C)CC(O)(CC(C)C)c1cn(C(=O)N2CCCC2)nn1` is reported as 1.1 (Platelet-activating factor acetylhydrolase IB subunit alpha1 (Pafah1b3, Mus musculus, UniProt Q61205); probe labelling, inhibitor, measured: Pafah1b3; mouse, brain; i.p., 0.8 mg/kg, 4 h, protein level; reference: treated over vehicle mice, lower = stronger inhibition).
With `CS(C)(=O)=Nc1ccc(-c2ccc(-c3nc4cc(O[C@@H]5CO[C@H]6[C@@H]5OC[C@H]6O)[nH]c4cc3F)cc2)cc1` the inhibition was 3% (5-hydroxytryptamine receptor 1D (Htr1d, Rattus norvegicus, UniProt P28565); calcium signal, antagonist; 10 µM).
For `COc1ccccc1-c1n[nH]c2nc(N[C@H]3CC[C@H](NS(=O)(=O)CC(C)C)CC3)ncc12`, the EC50 was 0.8 ± 0.004 nM (Leishmania donovani; promastigotes, LdBOB CRK12 single knockout).
With `Fc1cccc(COc2ccc(Nc3ncnc4ccc(-c5ccc(N6CCNCC6)cc5)cc34)cc2Cl)c1` the EC50 was 1400 nM (Trypanosoma cruzi; intracellular amastigote growth, β-galactosidase CPRG; 3T3, Tulahuen, β-galactosidase-expressing; 96 h).
`CC[C@H](C)[C@@H]([C@@H](CC(=O)N1CCC[C@H]1[C@H](OC)[C@@H](C)C(=O)N[C@H](C)[C@@H](O)c1ccccc1)OC)N(C)C(=O)[C@@H](NC(=O)[C@H](C(C)C)N(C)C(=O)OCc1ccc(NC(=O)[C@H](CCCNC(N)=O)NC(=O)[C@@H](NC(=O)CCCCCN2C(=O)CC(SC[C@H](NC(=O)[C@H](CC(=O)O)NC(=O)[C@H](Cc3ccc(O)cc3)NC(=O)[C@H](Cc3c[nH]c4ccccc34)NC(=O)[C@@H](N)CCCNC(=N)N)C(=O)O)C2=O)C(C)C)cc1)C(C)C` (stereo partly drawn) — result for concentration: “not detected” (C57BL/6 mouse, healthy, kidney; intraperitoneal, 2.5 mg/kg, 0.167 h).
`O=C(CCN(CCC(=O)N[C@@H](Cc1c[nH]c2ccccc12)C(=O)O)C(=O)CCN(CCC(=O)N(CCC(=O)N[C@@H](Cc1c[nH]c2ccccc12)C(=O)O)CCC(=O)N[C@@H](Cc1c[nH]c2ccccc12)C(=O)O)C(=O)[C@H]1C[C@@H](C(=O)N(CCC(=O)N(CCC(=O)N[C@@H](Cc2c[nH]c3ccccc23)C(=O)O)CCC(=O)N[C@@H](Cc2c[nH]c3ccccc23)C(=O)O)CCC(=O)N(CCC(=O)N[C@@H](Cc2c[nH]c3ccccc23)C(=O)O)CCC(=O)N[C@@H](Cc2c[nH]c3ccccc23)C(=O)O)C[C@@H](C(=O)N(CCC(=O)N(CCC(=O)N[C@@H](Cc2c[nH]c3ccccc23)C(=O)O)CCC(=O)N[C@@H](Cc2c[nH]c3ccccc23)C(=O)O)CCC(=O)N(CCC(=O)N[C@@H](Cc2c[nH]c3ccccc23)C(=O)O)CCC(=O)N[C@@H](Cc2c[nH]c3ccccc23)C(=O)O)C1)N[C@@H](Cc1c[nH]c2ccccc12)C(=O)O` gave an EC50 of 6700 ± 190 nM (respiratory syncytial virus; viral replication; HeLa cells, Long).
The EC50 of `CON(C(=O)c1cn(C)nc1C(F)F)C(C)Cc1c(Cl)cc(Cl)cc1Cl` (stereo not drawn) is reported as 0.862 µg/mL (Podosphaera fuliginea; Cucumis sativus; in vivo cucumber powdery mildew).
The EC50 of `O=C(CC12CC3CC(CC(C3)C1)C2)NCCOCC(=O)NC1CCN(S(=O)(=O)c2cc(C(=O)Nc3cc(F)c(F)c(F)c3)ccc2F)CC1` is reported as 580 ± 110 nM (Hepatitis B virus; viral replication, measured: intracellular HBV DNA; HepG2.2.15; 6 days).
For `Nc1nc(Nc2ccc(Cl)cc2)nn1S(=O)(=O)c1ccc2ccccc2c1`, the EC50 was over 25000 nM (Zika virus; viral replication; Vero 76, MR766).
With `O=C1NC(=O)c2c1c1cc(F)c[n+]3c1c1c2c2cc(O)ccc2[n]1[Ru-4]312([N]=C=S)[S+]3CC[S+]1CC[S+]2CC3` (stereo not drawn) the remaining activity was 114% (Epidermal growth factor receptor (EGFR, Homo sapiens, UniProt P00533); enzyme activity; 100 nM, human enzyme, added: 10 µM ATP; reference: untreated).
`CN(C)[C@H]1C[C@@]23CC[C@@]4(O2)C(=CC[C@]2(C)[C@@H](c5ccc6ccncc6c5)CC[C@H]24)C=C3[C@@H](O)[C@@H]1O` gave an inhibition of 10.4% (Dual specificity mitogen-activated protein kinase kinase 4 (MAP2K4, Homo sapiens, UniProt P45985); ATP probe labelling, inhibitor, KiNativ profiling; 0.1 µM).
For `O=C(c1cccc(-c2ccc3ncnc(Nc4ccc(OCc5cccc(F)c5)c(Cl)c4)c3c2)c1)N1CCOCC1`, the EC50 was 3500 nM (Trypanosoma cruzi; intracellular amastigote growth, β-galactosidase CPRG; 3T3, Tulahuen, β-galactosidase-expressing; 96 h).
The EC50 of `Cc1cc(O)c(=O)c(O)cc1C(=O)c1ccccc1` is reported as 900 nM (Hepatitis B virus; viral replication, inhibitor, qPCR; HepDES19).
`O=C(NNc1ccc(Cl)cc1)c1nnc(CC23CC4CC(CC(C4)C2)C3)o1` gave an EC50 of over 25 µg/mL (Rhizoctonia solani; microbial growth).
With `CC(=O)CCC1C(=O)NC(C(C)C)C(=O)NC(Cc2cc(O)cc(F)c2)C(=O)N2CCCC(N2)C(=O)OC(C(C)=CC=CC(=O)N2CCCCO2)CC=CC=CC(O)C(C)C1O` (stereo not drawn) the EC50 was 15 ± 2 nM (Hepatitis C virus; viral replication; Huh7, Con1 replicon; 10% fetal bovine serum).
